{"data": "Assay results collected from several papers", "note": "Each line is one published result; not all experiments were run side by side. “And” joins repeats or separate records; there may be more than shown. ± marks the error that the study gave."}
{"SMILES": "O=C(N[C@@H](Cc1coc2ccccc12)B(O)O)[C@@H]1C[C@H]2CC[C@@H]1O2", "system": "mouse, scaffold MM1.S bone marrow model", "conditions": "oral, 10 mg/kg once daily", "measurement": "median survival prolongation", "result": "110 days"}
{"SMILES": "CC(C)C[C@@H]1NC(=O)[C@H](C(C)C)NC(=O)[C@H](CO)NC(=O)CNC(=O)CNC(=O)[C@H](CCCNC(=N)N)NC(=O)[C@@H]2CCCN2C(=O)[C@@H](NC(=O)CC[C@H](NC(=O)c2ccc(N(C)Cc3cnc4nc(N)nc(N)c4n3)cc2)C(=O)O)C(C)(C)SSC[C@@H](C(=O)O)NC(=O)CNC(=O)[C@H]([C@@H](C)O)NC(=O)[C@H](C(C)C)NC1=O", "system": "rat adjuvant arthritis", "conditions": "iv, 5 mg/kg once daily, day 14", "how to read": "baseline: arthritis vehicle", "measurement": "paw weight reduction", "result": "73%"}
{"SMILES": "CC[C@H](C)[C@H](NC(=O)CNC(=O)[C@H](CC(=O)O)NC(=O)[C@H](CCCNC(=N)N)NC(=O)[C@@H](NC(=O)[C@H](CC(N)=O)NC(=O)[C@H](CCC(N)=O)NC(=O)CNC(=O)[C@@H](NC(=O)[C@H](CCCCN)NC(=O)[C@H](CCC(=O)O)NC(=O)[C@@H](NC(=O)[C@H](CCCCN)NC(=O)[C@H](CCCCN)NC(=O)[C@H](Cc1ccccc1)NC(=O)[C@H](CC(C)C)NC(=O)[C@H](CCCCN)NC(=O)[C@H](Cc1c[nH]c2ccccc12)NC(=O)[C@@H](N)CCCCN)[C@@H](C)CC)C(C)C)[C@@H](C)CC)C(=O)N[C@H](C(=O)N[C@@H](CCCCN)C(=O)N[C@@H](C)C(=O)NCC(=O)N1CCC[C@H]1C(=O)N[C@@H](C)C(=O)N[C@H](C(=O)N[C@@H](C)C(=O)N[C@H](C(=O)N[C@H](C(=O)NCC(=O)N[C@@H](CCC(N)=O)C(=O)N[C@@H](C)C(=O)N[C@H](C(=O)N[C@@H](CCC(N)=O)C(=O)N[C@H](C(=O)N[C@@H](C)C(=O)N[C@@H](CCCCN)C(N)=O)[C@@H](C)CC)[C@@H](C)O)C(C)C)C(C)C)C(C)C)[C@@H](C)CC", "test": "carboxyfluorescein release, stopped-flow fluorescence", "system": "POPC vesicles 50 µM", "conditions": "up to 1 µM, pH 7.5, peptide/lipid 1:50", "measurement": "time constant", "result": "~15000 s"}
{"SMILES": "CSCCNC(=O)CCC(C)C1CCC2C3C(O)CC4CC(O)CCC4(C)C3CCC12C (centres unmarked)", "system": "SPF mice, serum", "conditions": "oral gavage, dose not given", "how to read": "baseline: vehicle", "measurement": "serum FGF15", "result": "decreased"}
{"SMILES": "Cc1cc(Nc2nc(C[C@@]3(C(=O)O)CCN(Cc4cccc(Cl)c4F)[C@H](C)C3)cc(C)c2F)[nH]n1", "system": "mice, NCI-H69 xenograft", "conditions": "oral, 10 mg/kg once daily", "measurement": "tumour growth inhibition", "result": "89%"}
{"SMILES": "CCN(Cc1ccccc1)C(=O)CCc1nc(CN2CCN(C(=O)Cc3ccc(OC)c(OC)c3)CC2)no1", "test": "current clamp", "system": "L4-L6 DRG neurons, rat CCI model", "conditions": "10 µM, with: 500 pA current injection", "measurement": "action potential number", "result": "0.09 ± 0.05"}
{"SMILES": "O=C(O)c1ccc(/C=C2\\SC(=S)N(Cc3cccc(C(F)(F)F)c3)C2=O)cc1", "system": "Nlrp3 A350V x LysM-Cre mouse", "conditions": "oral, 20 mg/kg daily, from day 4, stopped day 25", "how to read": "up to", "measurement": "survival", "result": "30 to 48 days"}
{"SMILES": "CCc1noc(CC)c1C(=O)O[C@H]1C(C)=C[C@]23C(=O)[C@@H](C=C(CO)[C@@H](O)[C@]12O)[C@H]1[C@@H](C[C@H]3C)C1(C)C", "system": "mouse, B16 melanoma", "conditions": "topical, 0.1% hydroalcoholic gel, 3 months, two consecutive days", "measurement": "tumour-free animals", "result": "90%"}
{"SMILES": "CC[C@H](C)[C@H](NC(=O)[C@H](CCCNC(=N)N)NC(=O)[C@H](CCC(N)=O)NC(=O)[C@H](CC(=O)O)NC(=O)[C@H](CC(C)C)NC(=O)[C@H](CC(C)C)NC(=O)[C@H](CC(N)=O)NC(=O)[C@H](Cc1ccccc1)NC(=O)[C@H](CC(=O)O)NC(=O)[C@@H](NC(=O)[C@@H](NC(=O)[C@H](CC(N)=O)NC(=O)CNC(=O)[C@H](CO)NC(C)=O)C(C)C)[C@@H](C)CC)C(=O)N[C@H](C(=O)N[C@@H](Cc1c[nH]c2ccccc12)C(=O)N[C@@H](CCC(N)=O)C(=O)N[C@@H](CC(N)=O)C(=O)N[C@@H](Cc1c[nH]c2ccccc12)C(=O)N[C@@H](Cc1ccc(O)cc1)C(=O)N[C@@H](C)C(N)=O)[C@@H](C)CC", "test": "measured: HA-19 tetramer", "system": "antigen-experienced tetramer+ CD4 T cells, healthy adults, HLA-DRB1*0101", "conditions": "dose not given", "measurement": "α4β7+ CCR9+ cells", "result": "7.69%"}
{"SMILES": "CCOP(=O)(OCC)OCCCCOC(=O)CC1=C(C)C(=Cc2ccc([S+](C)[O-])cc2)c2ccc(F)cc21 (centres unmarked)", "test": "GFP imaging", "system": "BALB/c nude mice, orthotopic A549-GFP xenograft", "conditions": "inhalation, 6.5 mg/kg five times weekly, 8 weeks", "how to read": "baseline: control", "measurement": "tumour volume reduction", "result": "75%"}
{"SMILES": "O=c1c(O)c(-c2cc(O)ccc2O)oc2cc(O)cc(O)c12", "test": "DPPH radical scavenging", "conditions": "250 µg/mL", "measurement": "inhibition", "result": "69.5 ± 1.11%"}
{"SMILES": "N=C(N)NCCC[C@H](NC(=O)[C@@H]1CCCN1C(=O)[C@@H]1CSSC[C@H](N)C(=O)N[C@@H](Cc2ccc(O)cc2)C(=O)N[C@@H](Cc2ccccc2)C(=O)N[C@@H](CCC(N)=O)C(=O)N[C@@H](CC(N)=O)C(=O)N1)C(=O)NCC(N)=O", "system": "male Sprague-Dawley rat, conscious", "conditions": "intra-arterial, 20 ng/kg", "how to read": "baseline: pre-injection baseline", "measurement": "peak heart rate decrease", "result": "56 beats/min"}
{"SMILES": "Cc1ccc(/C=C/C(=O)O)cc1-c1cc2c(cc1C)C(C)(C)CCC2(C)C", "test": "RNA sequencing, measured: Cyp26b1 mRNA", "system": "rat, brain", "conditions": "dose not given, 24 h, single dose", "how to read": "baseline: vehicle", "measurement": "log2 fold change", "result": 0.15}
{"SMILES": "COc1ccc(F)cc1S(=O)(=O)Nc1cnc2c(c1)C(=O)NCCO2", "test": "measured: pyrophosphate", "system": "cynomolgus monkey", "conditions": "oral, 0.3 and 1 mg/kg, up to 2 h", "measurement": "plasma PPi concentration", "result": "increased"}
{"SMILES": "COc1ccc(C2=Nn3c(N/N=C4/C(=O)N(C)c5ccccc54)nnc3SC2)cc1", "test": "angiogenesis", "system": "hen egg chorioallantoic membrane", "conditions": "40 µM", "how to read": "baseline: DMSO vehicle", "measurement": "number of blood vessels", "result": "decreased"}
{"SMILES": "CC[C@H](C)[C@H](NC(=O)[C@H](Cc1c[nH]c2ccccc12)NC(=O)[C@H](CCCNC(=N)N)NC(=O)[C@H](CCCCN)NC(=O)[C@H](CC(C)C)NC(=O)[C@H](CC(=O)O)NC(=O)[C@H](Cc1ccccc1)NC(=O)[C@H](C)NC(=O)[C@H](Cc1ccc(O)cc1)NC(=O)[C@H](CC(N)=O)NC(=O)[C@H](Cc1ccc(O)cc1)NC(=O)[C@H](CCCNC(=N)N)NC(=O)[C@H](Cc1ccc(O)cc1)NC(=O)[C@H](Cc1ccc(O)cc1)NC(=O)[C@@H](NC(=O)[C@H](CC(C)C)NC(=O)[C@H](C)NC(=O)[C@H](CC(N)=O)NC(=O)[C@H](Cc1ccc(O)cc1)NC(C)=O)[C@@H](C)CC)C(=O)N[C@@H](Cc1ccc(O)cc1)C(=O)N[C@@H](CC(C)C)C(N)=O", "test": "measured: HA-52 tetramer", "system": "antigen-experienced tetramer+ CD4 T cells, healthy adults, HLA-DRB1*0101", "conditions": "dose not given", "measurement": "α4β7+ CCR9− cells", "result": "35.7%"}
{"SMILES": "CCOP(=O)(OCC)OCCCCOC(=O)CC1=C(C)/C(=C/c2ccc([S+](C)[O-])cc2)c2ccc(F)cc21 (centres unmarked)", "system": "rat, adjuvant-induced arthritis", "conditions": "topical, 50 mg/kg once daily, prevention protocol, PSH vehicle", "how to read": "baseline: vehicle", "measurement": "paw weight reduction", "result": "56% and 65%"}
{"SMILES": "CC[C@H](C)CCCCC(=O)N[C@@H](CCN)C(=O)N[C@H](C(=O)N[C@@H](CCN)C(=O)N[C@H]1CCNC(=O)[C@H]([C@@H](C)O)NC(=O)[C@H](CCN)NC(=O)[C@H](CCN)NC(=O)[C@H](CC(C)C)NC(=O)[C@@H](Cc2ccccc2)NC(=O)[C@H](CCN)NC1=O)[C@@H](C)O", "system": "C57BL/6 mouse, CLP sepsis", "conditions": "intravenous, 5 mg/kg every two days × 3, first dose 2 h after CLP", "measurement": "survival", "result": "33%"}
{"SMILES": "O=C(O)CCCC(=O)O", "test": "DPPH radical scavenging", "conditions": "500 µg/mL", "measurement": "inhibition", "result": "72.2 ± 1.63%"}
{"SMILES": "Cc1cc2c(C(=O)Cc3ccccc3)c(O)c(O)cc2c(O)c1-c1c(C)cc2c(C(=O)Cc3ccccc3)c(O)c(O)cc2c1O", "system": "B6 Bcl-2 transgenic mouse", "conditions": "60 µmol/kg", "how to read": "baseline: maximal spleen shrinkage", "measurement": "spleen weight reduction", "result": "80%"}
{"SMILES": "CC(C)C[C@H](NC(=O)[C@H](CCCCN)NC(=O)[C@H](CCCNC(=N)N)NC(=O)[C@@H](CC(C)C)NC(=O)[C@H](Cc1c[nH]c2ccccc12)NC(=O)[C@H](CC(=O)O)NC(=O)[C@H](CCCCN)NC(=O)[C@@H](CC(C)C)NC(=O)[C@H](CCCNC(=N)N)NC(=O)[C@H](CCC(N)=O)NC(=O)[C@@H](NC(=O)[C@@H](CC(C)C)NC(=O)[C@H](CCCNC(=N)N)NC(=O)[C@H](CCCCN)NC(=O)[C@H](Cc1ccc(C(C)(C)C)cc1)NC(=O)CN)C(C)C)C(=O)N[C@H](C(N)=O)C(C)C", "test": "ELISA", "system": "C57BL/6 mouse, catheter infection, peri-catheter tissue", "conditions": "dose not given, 3 d", "how to read": "baseline: untreated infected", "measurement": "IL-17A level", "result": "increased"}
{"SMILES": "CC[C@H](C)[C@H](NC(=O)[C@@H](NC(=O)[C@H](CC(=O)O)NC(C)=O)[C@@H](C)O)C(=O)N[C@@H](CCCNC(=N)N)C(=O)N[C@@H](CC(C)C)C(=O)N[C@@H](CC(C)C)C(=O)N[C@@H](Cc1ccccc1)C(=O)N[C@@H](CCC(N)=O)C(=O)N[C@@H](CC(C)C)C(=O)N[C@@H](CCSC)C(=O)N[C@@H](CCCNC(=N)N)C(=O)N1CCC[C@H]1C(=O)N1CCC[C@H]1C(=O)N[C@@H](CC(N)=O)C(=O)N[C@@H](CCSC)C(=O)N[C@H](C(=O)N1CCC[C@H]1C(=O)N[C@@H](C)C(=O)N[C@H](C(=O)N[C@@H](CC(N)=O)C(=O)N[C@@H](C)C(N)=O)C(C)C)[C@@H](C)O", "test": "measured: HA-15 tetramer", "system": "antigen-experienced tetramer+ CD4 T cells, healthy adults, HLA-DRB1*0101", "conditions": "dose not given", "measurement": "α4β7+ CCR9+ cells", "result": "27.3%"}
{"SMILES": "COc1nc(CC=C(C)CC=CC(C)=CC(C)C(OC2OC(CO)C(O)C(O)C2O)C(C)=CCO)c(C)c(O)c1OC (centres unmarked)", "test": "H&E staining", "system": "mouse, ischaemia-reperfusion AKI", "conditions": "dose not given", "measurement": "tubular necrosis", "result": "decreased"}
